# Measured values of several laboratories.
# A part holds a random share of what one study measured.
# Chain of UniProt P09769 (whole entry, looked up): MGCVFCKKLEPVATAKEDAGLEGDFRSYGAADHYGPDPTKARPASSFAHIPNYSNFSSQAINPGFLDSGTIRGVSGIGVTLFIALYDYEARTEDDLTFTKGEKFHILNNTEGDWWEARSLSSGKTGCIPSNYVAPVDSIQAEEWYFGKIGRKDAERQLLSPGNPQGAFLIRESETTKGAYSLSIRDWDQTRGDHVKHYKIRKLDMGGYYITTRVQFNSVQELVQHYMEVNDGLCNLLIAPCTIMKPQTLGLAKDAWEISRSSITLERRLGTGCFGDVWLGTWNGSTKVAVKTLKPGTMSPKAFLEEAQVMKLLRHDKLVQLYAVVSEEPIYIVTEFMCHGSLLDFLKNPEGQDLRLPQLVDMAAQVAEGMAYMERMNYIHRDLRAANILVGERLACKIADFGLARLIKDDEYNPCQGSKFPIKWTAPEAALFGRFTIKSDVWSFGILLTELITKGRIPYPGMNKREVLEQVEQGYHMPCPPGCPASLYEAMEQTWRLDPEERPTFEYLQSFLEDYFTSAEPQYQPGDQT
# Chain of UniProt Q96NX5 (whole entry, looked up): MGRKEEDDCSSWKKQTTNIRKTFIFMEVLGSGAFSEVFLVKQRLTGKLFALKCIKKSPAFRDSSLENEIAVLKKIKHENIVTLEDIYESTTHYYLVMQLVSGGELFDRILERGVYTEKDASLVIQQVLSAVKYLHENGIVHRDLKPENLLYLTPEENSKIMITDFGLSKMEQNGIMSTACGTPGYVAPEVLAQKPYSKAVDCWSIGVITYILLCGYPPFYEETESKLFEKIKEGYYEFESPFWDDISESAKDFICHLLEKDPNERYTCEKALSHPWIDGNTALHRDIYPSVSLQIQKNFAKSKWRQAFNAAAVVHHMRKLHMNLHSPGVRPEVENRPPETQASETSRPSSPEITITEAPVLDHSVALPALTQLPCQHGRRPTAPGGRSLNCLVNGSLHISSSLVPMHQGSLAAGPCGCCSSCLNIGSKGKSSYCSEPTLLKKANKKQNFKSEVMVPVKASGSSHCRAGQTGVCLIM
# Chain of UniProt O96017 (whole entry, looked up): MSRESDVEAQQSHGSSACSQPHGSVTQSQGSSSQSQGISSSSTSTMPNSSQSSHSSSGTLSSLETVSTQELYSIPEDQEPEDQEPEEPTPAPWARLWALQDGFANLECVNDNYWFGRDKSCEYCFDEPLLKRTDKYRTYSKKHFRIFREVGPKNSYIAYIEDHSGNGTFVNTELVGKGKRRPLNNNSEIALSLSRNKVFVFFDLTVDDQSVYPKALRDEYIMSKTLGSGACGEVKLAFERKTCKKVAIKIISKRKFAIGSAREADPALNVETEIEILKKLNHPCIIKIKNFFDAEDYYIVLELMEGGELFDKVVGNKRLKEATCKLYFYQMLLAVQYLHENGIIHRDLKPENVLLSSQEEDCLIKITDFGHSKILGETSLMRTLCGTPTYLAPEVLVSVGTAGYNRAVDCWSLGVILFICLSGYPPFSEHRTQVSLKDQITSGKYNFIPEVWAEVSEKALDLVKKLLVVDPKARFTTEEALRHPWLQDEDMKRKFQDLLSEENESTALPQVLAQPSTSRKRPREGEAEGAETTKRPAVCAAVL

# Sample 1
# Target: Beta-1 adrenergic receptor (ADRB1, Homo sapiens, UniProt P08588)
# Chain of UniProt P08588 (whole entry, looked up): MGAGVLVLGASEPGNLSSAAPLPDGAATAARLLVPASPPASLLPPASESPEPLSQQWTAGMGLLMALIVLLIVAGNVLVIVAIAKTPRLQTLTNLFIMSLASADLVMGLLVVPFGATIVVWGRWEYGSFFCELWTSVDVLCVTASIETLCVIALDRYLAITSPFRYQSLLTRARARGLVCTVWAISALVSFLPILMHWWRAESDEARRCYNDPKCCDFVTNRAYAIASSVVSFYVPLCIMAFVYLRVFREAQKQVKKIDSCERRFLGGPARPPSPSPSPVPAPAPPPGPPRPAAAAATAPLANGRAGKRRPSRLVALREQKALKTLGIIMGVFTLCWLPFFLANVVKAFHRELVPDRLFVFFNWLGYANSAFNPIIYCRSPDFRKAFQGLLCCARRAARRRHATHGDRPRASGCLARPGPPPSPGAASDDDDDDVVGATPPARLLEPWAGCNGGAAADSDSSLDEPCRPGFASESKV
# Action: agonist
SMILES,EC50 [µM]
Cc1ccccc1-c1n[nH]c2ncc(-c3ccccc3C#N)nc12,≥ 100
Cc1cc(-c2cc3ccccc3o2)nc2ccccc12,≥ 100
Cc1cc(I)ccc1Nc1nc(NCCN2CCOCC2)nc(N2CCOCC2)n1,≥ 100
CC(CNc1cc(-c2ccccc2)c2ccccc2n1)N1CCOCC1 (stereo not drawn),≥ 100
CN(c1ccccc1)c1cc(=O)c2ccnc(NCCc3ccccn3)c2o1,≥ 100
N#Cc1ccccc1CN1CCNc2nc(CNCc3ccccc3)n(Cc3ccccc3)c2C1=O,≥ 100
Cc1oc(C(O)c2cccc(O)c2)nc1C(=O)Nc1ccc(N2CCOCC2)cc1 (stereo not drawn),≥ 100
Cc1oc(C(O)c2ccccc2)nc1C(=O)NCCN1CCOCC1 (stereo not drawn),≥ 100
COc1ccccc1N1CCN([C@H]2[C@@H]3OC[C@@H](O3)[C@@H](NCc3ccc(OC(F)(F)F)cc3)[C@@H]2O)CC1,≥ 100
Cn1c(=O)cc(N2CCN(c3cccc(Cl)c3)CC2)[nH]c1=O,≥ 100
COc1ccccc1N1CCC(CNC(=O)c2c[nH]c3ccccc23)C1 (stereo not drawn),≥ 100
CC[C@@H]1OC(OC(c2c[nH]cn2)C(NC(=O)c2nc(C(CC(N)=O)NCC(N)C(N)=O)nc(N)c2C)C(=O)NC(C)C(O)C(C)C(=O)NC(C(=O)NCCc2nc(-c3nc(C(=O)NCCCCNC(=N)N)cs3)cs2)C(C)O)[C@@H](O[C@H]2O[C@H](CO)[C@@H](O)[C@H](OC(N)=O)[C@@H]2O)[C@@H](C)[C@@H]1C (stereo partly drawn),≥ 100
COc1ccc(CN(C)Cc2nc(C)no2)c(OCC(O)CN2CCCC2)c1 (stereo not drawn),≥ 100
CN1CCN(CC(O)COc2ccc(C34CC5CC(CC(C5)C3)C4)cc2)CC1 (stereo not drawn),≥ 100

# Sample 2
# SMILES: O=C1CCC(N2Cc3cc(C4CCN(Cc5ccccc5)CC4)ccc3C2=O)C(=O)N1 (stereo not drawn)
# Target: CRBN/Zinc finger protein Helios (Homo sapiens, UniProt Q96SW2+Q9UKS7)
# Chain of UniProt Q9UKS7 (whole entry, looked up): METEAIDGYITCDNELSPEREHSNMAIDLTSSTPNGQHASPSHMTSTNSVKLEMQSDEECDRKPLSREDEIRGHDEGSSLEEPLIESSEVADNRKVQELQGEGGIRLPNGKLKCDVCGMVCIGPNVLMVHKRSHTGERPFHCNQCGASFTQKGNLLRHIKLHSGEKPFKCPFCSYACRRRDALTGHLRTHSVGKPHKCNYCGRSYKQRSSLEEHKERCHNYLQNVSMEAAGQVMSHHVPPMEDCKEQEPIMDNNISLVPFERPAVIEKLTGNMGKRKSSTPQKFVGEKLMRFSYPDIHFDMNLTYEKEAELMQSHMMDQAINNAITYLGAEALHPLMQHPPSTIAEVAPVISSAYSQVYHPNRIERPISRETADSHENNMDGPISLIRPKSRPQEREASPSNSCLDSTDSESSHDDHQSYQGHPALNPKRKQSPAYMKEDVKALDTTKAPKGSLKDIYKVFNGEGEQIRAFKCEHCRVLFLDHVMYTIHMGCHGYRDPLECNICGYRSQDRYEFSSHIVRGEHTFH
# Chain of UniProt Q96SW2 (whole entry, looked up): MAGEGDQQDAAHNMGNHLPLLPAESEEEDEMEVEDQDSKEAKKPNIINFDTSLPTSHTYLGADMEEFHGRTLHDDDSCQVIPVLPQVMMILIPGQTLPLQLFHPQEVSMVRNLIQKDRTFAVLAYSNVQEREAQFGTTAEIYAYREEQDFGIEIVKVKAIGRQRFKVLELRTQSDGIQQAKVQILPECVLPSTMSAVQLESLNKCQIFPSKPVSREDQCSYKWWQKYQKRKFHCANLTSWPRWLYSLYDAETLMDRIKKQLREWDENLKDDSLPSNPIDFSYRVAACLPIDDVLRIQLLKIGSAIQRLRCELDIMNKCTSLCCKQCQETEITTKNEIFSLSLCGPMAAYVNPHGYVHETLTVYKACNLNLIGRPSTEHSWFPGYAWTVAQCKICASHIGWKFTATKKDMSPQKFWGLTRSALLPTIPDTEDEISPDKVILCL
# Action: degrader
# Technique: HiBiT kinetics
# Cells: HEK293
conditions,protein remaining [%]
"333.3 nM, 6 h",19.6
"0.1524 nM, 0.5 h",101
"1.372 nM, 6 h",55.4
"12.35 nM, 3 h",39.8
"333.3 nM, 1 h",73.1

# Sample 3
# Target: Activated CDC42 kinase 1 (TNK2, Homo sapiens, UniProt Q07912)
# Chain of UniProt Q07912 (whole entry, looked up): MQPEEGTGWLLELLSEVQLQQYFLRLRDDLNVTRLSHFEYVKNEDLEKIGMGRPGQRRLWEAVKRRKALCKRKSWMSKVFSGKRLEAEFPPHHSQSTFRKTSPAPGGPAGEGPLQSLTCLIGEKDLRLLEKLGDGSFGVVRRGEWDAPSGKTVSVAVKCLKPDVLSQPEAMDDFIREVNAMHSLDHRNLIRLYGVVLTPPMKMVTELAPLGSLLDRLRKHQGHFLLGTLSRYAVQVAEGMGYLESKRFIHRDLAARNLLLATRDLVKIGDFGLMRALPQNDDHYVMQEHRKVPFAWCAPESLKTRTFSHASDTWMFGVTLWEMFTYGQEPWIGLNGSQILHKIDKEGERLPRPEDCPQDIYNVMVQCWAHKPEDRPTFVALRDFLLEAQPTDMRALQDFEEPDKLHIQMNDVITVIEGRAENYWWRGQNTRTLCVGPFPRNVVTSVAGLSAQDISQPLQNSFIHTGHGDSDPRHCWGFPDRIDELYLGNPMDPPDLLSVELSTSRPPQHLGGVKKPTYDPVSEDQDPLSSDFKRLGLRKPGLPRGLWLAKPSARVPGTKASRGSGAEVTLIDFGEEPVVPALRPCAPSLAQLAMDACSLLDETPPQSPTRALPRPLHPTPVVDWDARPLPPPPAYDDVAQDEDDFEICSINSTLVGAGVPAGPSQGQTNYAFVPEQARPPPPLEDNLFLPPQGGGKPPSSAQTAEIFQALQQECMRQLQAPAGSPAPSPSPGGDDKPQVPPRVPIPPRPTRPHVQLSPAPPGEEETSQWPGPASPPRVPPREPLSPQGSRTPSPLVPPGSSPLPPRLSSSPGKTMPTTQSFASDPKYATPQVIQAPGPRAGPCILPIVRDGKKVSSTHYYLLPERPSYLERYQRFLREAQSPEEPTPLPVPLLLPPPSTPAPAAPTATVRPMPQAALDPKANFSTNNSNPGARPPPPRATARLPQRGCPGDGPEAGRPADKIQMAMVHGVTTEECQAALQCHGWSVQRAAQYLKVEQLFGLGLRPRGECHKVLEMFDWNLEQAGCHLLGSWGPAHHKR
# Read-out: enzyme activity
# Action: inhibitor
# Tested at: 0.5 µM
# Baseline: control
Compound,remaining activity [%]
CCc1[nH]c(-c2ccc(OC)cc2)nc1-c1ccncc1,100
Cc1ccc(NC2=CC(=O)c3sc(C)nc3C2=O)cc1,94.3
NC(=O)c1ccc(N(C(N)=O)c2c(F)cccc2F)nc1-c1ccc(F)cc1F,96.1
Cc1cc(Nc2nc(-c3ccccc3)nc3ccccc23)n[nH]1,10.8
N#CC(=C(N)Sc1ccc(N)cc1)c1ccccc1C(F)(F)F,100
CC(C)(C)n1nc(Cc2cccc3ccccc23)c2c(N)ncnc21,2.36
Oc1ccc(Nc2nc(-c3ccc(Cl)cc3)cs2)cc1,103
O=C1Cc2c([nH]c3ccc([N+](=O)[O-])cc23)-c2ccccc2N1,74.9
Nc1nccc(-c2c(-c3ccc(F)cc3)ncn2C2CCNCC2)n1,98
CCCC(=O)Oc1ccc2[nH]c(C(=O)c3cc4ccccc4[nH]3)cc2c1,77.7
COc1cc(Nc2c(C#N)cnc3cc(OCCCN4CCN(C)CC4)c(OC)cc23)c(Cl)cc1Cl,3.54
COc1ccc(S(=O)(=O)N(CCO)c2ccccc2CN(C)CC=Cc2ccc(Cl)cc2)cc1,94.1

# Sample 4
# SMILES: O=C(Nc1cnc(Oc2ccc(F)cc2)nc1)N1CCc2ncccc2[C@@H]1c1ccc(F)cc1
# Read-out: cell-free assay
# Technique: competition with immobilised ligand
# Tested at: 1 µM
target,remaining binding [%]
"Serine/threonine-protein kinase RIO1 (RIOK1, Homo sapiens, UniProt Q9BRS2)",89
"Protein kinase C epsilon type (PRKCE, Homo sapiens, UniProt Q02156)",100
"Mitogen-activated protein kinase 8 (MAPK8, Homo sapiens, UniProt P45983)",83
"Calcium/calmodulin-dependent protein kinase type 1G (CAMK1G, Homo sapiens, UniProt Q96NX5)",97
"Serine/threonine-protein kinase DCLK1 (DCLK1, Homo sapiens, UniProt O15075)",83
"Transient receptor potential cation channel subfamily M member 6 (TRPM6, Homo sapiens, UniProt Q9BX84)",100
"Receptor-type tyrosine-protein kinase FLT3 (FLT3, Homo sapiens, UniProt P36888, F691L/ITD)",79
"Dual specificity tyrosine-phosphorylation-regulated kinase 2 (DYRK2, Homo sapiens, UniProt Q92630)",81
"Mitogen-activated protein kinase kinase kinase 20 (MAP3K20, Homo sapiens, UniProt Q9NYL2)",100
"Muscle, skeletal receptor tyrosine-protein kinase (MUSK, Homo sapiens, UniProt O15146)",86
"Serine/threonine-protein kinase PLK4 (PLK4, Homo sapiens, UniProt O00444)",100
"ALK tyrosine kinase receptor (ALK, Homo sapiens, UniProt Q9UM73, L1196M)",100
"Atypical kinase COQ8A, mitochondrial (COQ8A, Homo sapiens, UniProt Q8NI60)",95
"eIF-2-alpha kinase GCN2, C-terminal kinase domain (EIF2AK4, Homo sapiens, UniProt Q9P2K8, S808G)",85
"Serine/threonine-protein kinase Chk2 (CHEK2, Homo sapiens, UniProt O96017)",92
"Ribosomal protein S6 kinase alpha-6, N-terminal kinase domain (RPS6KA6, Homo sapiens, UniProt Q9UK32)",100
"Tyrosine-protein kinase Fgr (FGR, Homo sapiens, UniProt P09769)",100

# A few entries again (sample 3):
Compound,remaining activity [%]
CCc1[nH]c(-c2ccc(OC)cc2)nc1-c1ccncc1,100
Cc1cc(Nc2nc(-c3ccccc3)nc3ccccc23)n[nH]1,10.8
Nc1nccc(-c2c(-c3ccc(F)cc3)ncn2C2CCNCC2)n1,98
NC(=O)c1ccc(N(C(N)=O)c2c(F)cccc2F)nc1-c1ccc(F)cc1F,96.1
Cc1ccc(NC2=CC(=O)c3sc(C)nc3C2=O)cc1,94.3
